Experimental data of several laboratories.
Each numbered part is a random draw from the data of one study; scales do not carry over between parts.

Block 1
Target: Myc proto-oncogene protein, bHLH-zipper, MAX partner unstated (MYC, Homo sapiens, UniProt P01106, residues 368-449)
Chain of UniProt P01106 (368-449, looked up): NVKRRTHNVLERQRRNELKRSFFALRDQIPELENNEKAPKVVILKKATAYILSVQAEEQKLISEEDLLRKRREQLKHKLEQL
Technique: protein-binding microarray
Molecule type: double-stranded DNA, one strand shown
Sample: in vitro
Concentration: not given
Setting: k-mer, scored over probes, only values ≥0.25
Direction: higher = stronger binding
Oligonucleotide	E-score
CGCACCGC	0.285
ACCCGCGC	0.257
AAAACACG	0.29
CATGCCAA	0.345
GCGCGGCC	0.252
CACGCGGC	0.478
GCACGAGA	0.331
GGGCACGA	0.279
GCGTGGTA	0.436
CCACGTTC	0.362
CCGCACGA	0.307
CACCCATG	0.353
ACATGGAT	0.292
ACGCGCGG	0.36
GATCACGC	0.348
CATGGGCA	0.311
CTGTCCAC	0.297
ATCGTGGG	0.254
TGCACACA	0.283
AACCATGC	0.413
CCACGTTA	0.383
CTCAGCAC	0.283

Block 2
Target: Centromere-binding protein 1, full length, His-tagged (CBF1, Saccharomyces cerevisiae, UniProt P17106, residues 1-351)
Chain of UniProt P17106 (whole entry, looked up): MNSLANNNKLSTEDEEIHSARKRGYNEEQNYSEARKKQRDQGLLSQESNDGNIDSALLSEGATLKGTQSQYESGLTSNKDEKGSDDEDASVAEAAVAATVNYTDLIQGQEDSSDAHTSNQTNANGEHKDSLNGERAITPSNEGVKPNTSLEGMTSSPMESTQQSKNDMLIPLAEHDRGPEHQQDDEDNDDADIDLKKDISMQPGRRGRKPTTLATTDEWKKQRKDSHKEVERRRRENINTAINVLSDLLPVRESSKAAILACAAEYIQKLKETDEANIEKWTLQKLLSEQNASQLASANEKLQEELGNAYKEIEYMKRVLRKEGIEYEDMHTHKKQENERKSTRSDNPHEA
Technique: competition protein-binding microarray
Molecule type: double-stranded DNA, one strand shown
Sample: in vitro
Concentration: 2 µM
Setting: whole 60-bp probe, lowest competitor level
Together with: Pho4 competitor, 0.05 µM
Direction: higher = stronger binding
Constant ends, left off below: … GTCTTGATTCGCTTGACGCTGCTG
Oligonucleotide	fluorescence intensity
AAAGCGGTAATTTTTCACGTGCAGTCAAATATCTAT	1370 a.u.
GAGCAATCATACCGTCACGTTCCATCTCACCGAATC	288 a.u.
AAATTACTAAGTTGAGGTGTGGGTGACGCCGTATGA	75.7 a.u.
AACGCGTCTTAAAAGAATGTGACAGGAGATGGGATG	94.6 a.u.
AAATTACTAAGTTGGTTAGTGGGTGACGCCGTATGA	62.8 a.u.
CTTTCCTTGGTCGCCGGCGTGACGGATTCGCTGGCG	91.9 a.u.
GGTTTCTTATCAAGTGGCGTGCCAGGGCATCTACCA	109 a.u.
ACTATTCGTCCGAGTCACGCATACGTTTGTCAGTGG	214 a.u.
CTTTCCCGATCTTGTCACGCAACTTTAGCACATTTG	120 a.u.
ATCCAAAAGTTGAACGACATGACAAGGTAGTTCCGA	67.4 a.u.
CTTTCCCGATCTTTTCACGTGCATTTAGCACATTTG	931 a.u.
CATACGCGTTCGCTTCACGTGATGGTCCTTTTCCAT	2690 a.u.
AAAGCGGTAATTTGATTAGTGGGTGCAGATATCTAT	76.9 a.u.
GCATTAACGACAAAGCACGTGACGAATTCCCTTCAA	6640 a.u.
CATACCCAACCTTGCATTGTGGGTGAAGATATTTGT	83.5 a.u.
ATGAGATTGAAATCCTCCGTGATGGGCTCCGGAACT	64.5 a.u.
AACACCTTCCGACGGCGCGTGTTGGCAAAGCTGGGT	65.7 a.u.
AATGTGTCGTTCGAACTCGTGGTTACGTCGCCTGGA	87.8 a.u.

Block 3
Target: Histone acetyltransferase KAT6A, both winged helices, GST fusion (KAT6A, Homo sapiens, UniProt Q92794, residues 1-181)
Technique: protein binding microarray
Molecule type: double-stranded DNA, one strand shown
Sample: in vitro
Concentration: not given
Setting: 8-mer, flanks averaged, mean of 2 arrays, mostly near background
Baseline: not given
Direction: higher = stronger binding
Residues (chain): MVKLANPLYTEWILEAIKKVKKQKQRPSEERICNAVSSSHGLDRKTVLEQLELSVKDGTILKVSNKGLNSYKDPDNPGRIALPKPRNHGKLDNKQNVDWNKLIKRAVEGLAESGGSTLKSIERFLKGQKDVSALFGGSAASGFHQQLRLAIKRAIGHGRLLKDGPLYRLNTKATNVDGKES
Oligonucleotide	E-score
ACCGGGGC	0.0524
ACGTGATG	-0.111
ACATGATC	0.0377
CATAGTGG	-0.14
GATCTTTA	0.0123
ACAATACA	-0.00382
AAGAAACG	-0.0191
CATCCTAG	-0.123
CTCGATGA	0.0217
AGTAGTGA	-0.105
CGCAGAAC	0.248
ACACAATA	-0.145
CCGTTCAA	0.125
ACAGTATG	-0.187
AAGACGGT	-0.0706
ACCGCATA	0.106
ATCGTCTG	0.0895

Block 4
Target: RING finger protein unkempt homolog, zinc fingers 1-6, GST-SBP tag (UNK, Homo sapiens, UniProt Q9C0B0, residues 30-357)
Technique: RNA Bind-n-Seq
Molecule type: RNA
Sample: in vitro
Concentration: not given
Setting: RNA with constant flanks, human and mouse sites, ends assumed
Baseline: input RNA pool
Direction: higher = stronger binding
Constant ends, left off below: GGGAGUUCUACAGUCCGACGAUC … CAACAGAGGAUUGAGCAUCA
Residues (chain): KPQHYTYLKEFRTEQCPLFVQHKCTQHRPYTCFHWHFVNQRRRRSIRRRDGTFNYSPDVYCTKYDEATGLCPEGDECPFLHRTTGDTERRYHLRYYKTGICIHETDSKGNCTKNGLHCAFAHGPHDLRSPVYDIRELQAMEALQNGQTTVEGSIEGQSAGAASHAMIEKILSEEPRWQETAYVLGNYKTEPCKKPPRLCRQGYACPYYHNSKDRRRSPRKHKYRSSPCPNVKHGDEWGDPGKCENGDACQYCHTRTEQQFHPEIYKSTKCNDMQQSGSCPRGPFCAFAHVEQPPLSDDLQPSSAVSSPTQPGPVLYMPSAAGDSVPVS
Oligonucleotide	bound/input enrichment [ratio]
AUAAUAAAAGCUUCCAGCAAAGAUGCCAUCAGGCUUUUGGAUUCCGUGCCUCCCACUGCCAUUAGUCACUUCAAACAAUCAGCUGAGAAGCUGAUAGAGGAGAAGGGAGCUGUGGAAGCU	0.162
CUGCCCUACGCGCUGCAUAAGUGGAGCUCCUUCUCCUCCACCUACCUUCCCGAGAACAUUUUAGUGGAUAAACCAAAUGAUCAGUCUUCCAGAUGGUCUUCAGAGAGCAACUAUCCUCCC	0.998
CCUCCCACCAAGGGCCUCCGCAAGGAAGAGCGGCCCGGGCCAGGCCCUGGGGAGGUGCGCAUCGCCUUCCGCAUCUCCAACGGCCGGGAGCCCCGUGCACCAGACAGCGGCCUGCCCAGU	0.143
CCUGCAGCGGCCAAGAAGCCAAAAAUCUUUUCCUCUUUUUUUUUUCUCAGAUACUGUGCCCCAUUUUUGGAGAGGGGAAGGUGGGCAUUGCUAAAUGGCUAAUGUACUGUUCCCCCAGCU	0.476
ACGCAGUGUCUGCUGGGGCUGCGCACGUUCGUGGCCUUCGCCGCCAAGCUCUGGAGCUUCUUUAUUUACCUUUUGCGGAGGCAGAUCCGCACGGUAAUUCAGUAUCAGACUGUUCGAUAU	0.0644
UUUGAAGAAGGUGAAGAAACAAUUACAGCCUUUGUAGAACCUUUUGUAAUUUUACUCAUAUUAGUAGCCAAUGCAAUUGUGGGUGUAUGGCAGGAAAGAAAUGCUGAAAAUGCCAUCGAA	1.49
CUGUGGCUUAUAUUUAUCAUCUGUGUCUGCUAUUAUGUUGCUGUGUUCCCUUUUAUUGGACUUGGGAAAGUUUUCUUUACAGAGAAAUUUGGAUUUUCUUCCCAGGCAGCAAGUGCAAUU	0.346
CAGGGUCCCAAGACCAUUGACCAGAUCCAUAAGGAGGCUGAGAUGGAAGAACAUCGAGAGCACAUCAAAGUGCAGCAGCUCAUGGCCAAGGGCAGUGACAAGCGUCGGGGCGGUCCUCCA	0.0533
CACCGCUCCCCACACAUUCCAUACAAGCUGCUGCACCUGGUGUGGACGCACGCCCGGCACCUGGCGGGUUAUGAGCAGCAGGACGCACAUGAGUUCCUCAUUGCAGCCCUGGACGUCCUC	0.159
AAGGCAACAGAUGAAACGGGUGUAUCUGCUGUUCAGUUUGGAAACUCUUCUACAUCAGUAUUAGCUACAUUAGCUGCCUUAGCUGAAGCAUCUGCUCCAUUGUCCAAUUCUUCAGAAACU	0.291
AUGAUAAUUGUUGGAGUCAGCAUUUUAUGUAUUCCAUUUGCAAAAAACAUUUAUGGACUCAUAGCUCCGAACUUUGGAGUUGGUUUUGCAAUUGGAAUGGUGGAUUCGUCAAUGAUGCCU	0.102

Block 5
Target: RNA binding protein fox-1 homolog 2, RRM domain, GST-SBP tag (RBFOX2, Homo sapiens, UniProt O43251-10, residues 100-194)
Technique: RNA Bind-n-Seq
Molecule type: RNA
Sample: in vitro
Concentration: 365 nM
Setting: natural RNA segment, single round, ends assumed
Baseline: no-protein control
Direction: higher = stronger binding
Constant ends, left off below: GGGAGUUCUACAGUCCGACGAUC … UGGAAUUCUCGGGUGCCAA
Residues (chain): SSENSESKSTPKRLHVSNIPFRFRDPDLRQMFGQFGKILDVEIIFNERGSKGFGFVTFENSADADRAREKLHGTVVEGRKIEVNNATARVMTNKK
Oligonucleotide	RBNS enrichment (R)
ACCAUCACCCUCUCUGUCCCUCCUCAGCCACGCCCAAGUGUACUGGGAUACCUAAGGACCAAUGUUUUCUUCCUCUUAGACACAAAUAAAGAUGCUGAGAAAAAGCAACA	0.21
AGGUCAACCUCACACUGAUAUGCUCCUCGACUAGAGAGGUCUCCAAGCCCAGAACAGAGACUUGAACACCAUGUCCUUAACCAAAGUCAGCUCUUCAGAGUGUAAAUGAG	0.344
UUUCCCUUAGUUUUGUGAACUCUGCUAAUCACUGUGUCUCUAAGUUAGACUUAUUUUCUAGUGGCUUCAACACAUGUUCCAACUUGAAUUUUUUUCUUUUCUUCUUUAAG	0.62
CUUCCUCAUGCUCAUCUUCAUGACCUACAAUGGGUACCUAUGCAUUGCAGUAGCAGCAGGGGCUGGGACGGGAUACUUUCUCUUCAGCUGGAAGAAGGCAGUGGUGGUGG	0.393
AAUCUGAGACUUGUAGAGAUGAUUUAAUGAGAAGCACAAUUUUUAUUGUGACCAGUCACGUUCUAUCACCAGGCACUGUCUUGUCUUUGCCCUUGCCUUUUCUGUAACUC	0.259
UGUAGUUUACUUAAGCCAAAAUGUGUUUUUUUCCCCUUGAUAGCUUCGCUAAUAUUUUAAACAGUCCUGUAAAAAACCAAAAAGGACUUUUUGUAUAGAAAGCACUACCC	0.812
AUGCUUAUGUCAGAAUGUGUGGGCUUUGGUUUAAAGGACAUAACCUCUCCGCUUGUGACAAAGUCAUUGUUGCCAUCAGGAUUUCAAGUAAUGGGCGUAUCUCAGGGCUA	0.874
CAUGUGCCACCCCCUUUCCUAACAGACUUGUCCAAGUGCUUGGCGUGGGACCCAUGACCAAAGCCCAGGAUGGCUUGGUGGGAGUGUCCCUGCUGCAUCUGCAUGAAGCC	2.87
CAAACCAGUUAGCAACACAAUAUUUAUGUUUAAAUUUAUCAUUAAAGUACAACAGUCAUUUAACACAGGUGUAACUAUGGAUCAUUUUCUAAUGUGUAAUUUUGACUUCU	0.493
GAUGUAGCAGAAGAGAUCAUUUCUGGAGGCUUCAGCAAUGGAAUUUAGCAUUAUAAGAGAGAUUGGACAAACCAGUCCAAAGUGGUCCGAGUUCUUAAAUCCAGGUAGGG	0.801
AGCGAGUAUUCAGAUCAUACGAGGAGGCGUUCCUCGGUGCAUGACGGUCAGAUGGCCAUUUAUCAGCAUAUUUAUUUGUAUUUUCUCAGCAGAUAGUAAGGUACAACUGU	0.841
UACCAGUGUUGUCCAGAAGAAGCAGAGACUCAGCGCGGCUGUUGUGAGGUCUGCCUCACACCACCCACCUGCACUGCUCUCGCCUAACUGUGGACGCCGGGCACUGUUGG	0.264

Block 6
Target: Sal-like protein 4, full length isoform A (SALL4, Homo sapiens, UniProt Q9UJQ4, residues 1-1053)
Chain of UniProt Q9UJQ4 (whole entry, looked up): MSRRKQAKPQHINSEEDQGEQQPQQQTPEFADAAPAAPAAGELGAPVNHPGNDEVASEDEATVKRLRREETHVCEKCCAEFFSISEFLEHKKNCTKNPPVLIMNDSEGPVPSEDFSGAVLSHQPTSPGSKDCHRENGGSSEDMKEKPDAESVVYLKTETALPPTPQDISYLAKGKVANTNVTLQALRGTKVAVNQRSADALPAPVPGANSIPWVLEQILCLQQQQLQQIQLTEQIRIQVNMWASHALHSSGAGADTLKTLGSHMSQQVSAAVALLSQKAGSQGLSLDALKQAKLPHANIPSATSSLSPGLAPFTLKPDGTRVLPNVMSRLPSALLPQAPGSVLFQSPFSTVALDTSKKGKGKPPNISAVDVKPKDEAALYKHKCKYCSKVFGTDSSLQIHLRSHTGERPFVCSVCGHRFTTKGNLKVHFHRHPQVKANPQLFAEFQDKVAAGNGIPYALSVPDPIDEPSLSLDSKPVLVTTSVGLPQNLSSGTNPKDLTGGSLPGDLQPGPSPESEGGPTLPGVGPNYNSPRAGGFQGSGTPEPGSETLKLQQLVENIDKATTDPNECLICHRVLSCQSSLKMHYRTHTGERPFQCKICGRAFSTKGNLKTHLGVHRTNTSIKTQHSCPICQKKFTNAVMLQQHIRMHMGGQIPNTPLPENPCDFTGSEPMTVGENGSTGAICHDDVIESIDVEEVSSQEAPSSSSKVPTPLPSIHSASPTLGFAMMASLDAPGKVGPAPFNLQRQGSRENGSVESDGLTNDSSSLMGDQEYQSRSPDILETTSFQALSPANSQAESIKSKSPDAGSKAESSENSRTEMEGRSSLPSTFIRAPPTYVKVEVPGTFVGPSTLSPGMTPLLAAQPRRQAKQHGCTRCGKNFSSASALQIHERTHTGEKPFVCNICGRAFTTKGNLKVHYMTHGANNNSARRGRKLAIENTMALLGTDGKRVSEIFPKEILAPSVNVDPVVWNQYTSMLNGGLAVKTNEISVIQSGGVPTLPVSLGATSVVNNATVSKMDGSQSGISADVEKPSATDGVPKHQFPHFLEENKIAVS
Technique: universal PBM
Molecule type: double-stranded DNA, one strand shown
Sample: in vitro
Concentration: 600 nM
Setting: 8-mer, flanks averaged, mean of replicates
Direction: higher = stronger binding
Oligonucleotide	E-score
CGGGCGAA	-0.16
GTACTTGA	0.0668
TCACTACA	0.162
CGCACGAC	-0.242
ACTACTCG	0.0444
AGGGGCGC	-0.288
CCCTATAC	-0.0115
AGGTTCAC	-0.165
GCTCCTCA	-0.212
ACTGGTCA	-0.0719
CAGTAAAC	0.1
CCGAGAAG	-0.178
CTATCGGA	0.055
CACTAAGG	-0.111
CGAAGGAA	0.0719
AGAGCAGC	-0.0663
ACGGGGCA	-0.284
CACTGCTA	0.0588
CGAGATGC	-0.0451
AAAATGGG	0.192
CTACCGTA	0.0617
CTCCCGGC	-0.317

Repeated from above (block 3):
Oligonucleotide	E-score
CTCGATGA	0.0217
AGTAGTGA	-0.105
CGCAGAAC	0.248
ACACAATA	-0.145
CCGTTCAA	0.125
ACAGTATG	-0.187
AAGACGGT	-0.0706
ACCGCATA	0.106
